Published values collected from several papers.
Compare with care: the assays were run in different laboratories. Numbers after ± are the reported error. Ends that are not written are not given here. * marks the point of attachment.

CC(=O)c1sc(N=C2c3ccccc3-c3nc4cc(F)ccc4nc32)nc1C
blood glucose (mice with STZ-induced diabetes; oral, 25 mg/kg, 288 h, day 12): 300 ± 18.2 mg/dL

CCCN(O)N=Nc1ccc(S(=O)(=O)Nc2cc(C)on2)cc1
inhibition (paw oedema; rat, carrageenan oedema; oral, 100 mg/kg, 4 h after carrageenan; reference: vehicle): 81.7%

Cc1c(C)c2c(c(C)c1O)CCC(C)(C(=O)NN=C1C(=O)N(C)c3ccccc31)O2 (centres unmarked)
minimal effective dose (seizure protection; male CF-1 mice; intraperitoneal, 4 h, with: maximal electroshock): 30 mg/kg

Cc1cc(NS(=O)(=O)c2ccc(N=NN(O)c3ccccc3)cc2)no1
inhibition (paw oedema; rat, carrageenan oedema; oral, 100 mg/kg, 4 h after carrageenan; reference: vehicle): 82.6%

CC[C@H](C)[C@@H]1NC(=O)[C@H](CCCNC(=N)N)NC(=O)[C@H](CC(=O)O)NC(=O)[C@H](CC(C)C)NC(=O)[C@H](CCCCN)NC(=O)[C@H](CC(C)C)NC(=O)CNC(=O)[C@H](Cc2ccccc2)NC(=O)[C@@H](NC(=O)CNC(=O)[C@H](CCCCN)NC(=O)[C@H](CO)NC(=O)[C@H](CC(C)C)NC(=O)CNC(=O)[C@H](CCCCN)NC(=O)[C@H](CCCCN)NC(=O)[C@H](CC(N)=O)NC(=O)[C@H](C)NC(=O)CNC(=O)[C@H](CCCCN)NC(=O)[C@H](Cc2ccc(O)cc2)NC(=O)[C@H](CCCCN)NC(=O)[C@H](CCCNC(=N)N)NC(=O)[C@H](C)NC(=O)[C@H](CC(N)=O)NC(=O)[C@@H]2CCCN2C(=O)[C@H](Cc2c[nH]cn2)NC(=O)[C@H](CCC(=O)O)NC(=O)[C@H](CCC(N)=O)NC(=O)CNC(=O)[C@@H]2CCCN2)CSSC[C@@H](C(=O)O)NC(=O)CNC(=O)[C@H](CC(C)C)NC(=O)CNC(=O)[C@H](CO)NC(=O)[C@H](CCSC)NC(=O)[C@H](CO)NC(=O)CNC1=O
Emax (item: collagen type X marker; human patients with achondroplasia, serum; day 10 to 183, sigmoid Emax vs Cmax): 3690 pg/mL

SIIVFEKL
IL-2+ TNF-α+ cells (flow cytometry, item: CD44hi CD8+ T cells; peptide, OT-I CD8+ T cells, mouse; dose not given, primed 5 days, restimulated 100 ng/mL OVA257, with: no TGF-β1): 2.62%

Polymyxin B
IL-1β release (human whole blood; 500 ng/mL, 4 h, 37 °C, with: E. coli LPS 0.5 ng/mL; reference: LPS without compound): 10.2 ± 5.5%

c1ccc2cc3c(ccc4ccccc43)cc2c1
minimal protective dose (adrenal haemorrhage prevention; rat; oral, with: 7,12-DMBA 5 mg i.v.): 1 mg

C[C@H]1C[C@H]2CSC(N)=N[C@@]2(c2nc(NC(=O)c3ccc(OC(F)F)cn3)cs2)CO1
change from baseline (item: CSF total Aβ; healthy adults; 125 mg once daily, 14 days, day 15; reference: placebo-adjusted baseline): -78.4%

CC(=O)N1CCC(NC(=O)NC23CC4CC(CC(C4)C2)C3)CC1
mechanical withdrawal threshold increase (rat, LPS inflammatory pain; sc, 3 mg/kg; reference: vehicle): > 20%

COc1ccc2c(c1)c(CC(=O)O)c(C)n2C(=O)c1ccc(Cl)cc1
cytokine level (multiplex bead immunoassay, item: RANTES; CD-1 mice, serum; ip, 20 mg/kg, three-injection regimen, with: LPS 3 mg/kg): 2.9 ± 1.8 pg/mL

AGEDPHGYALPGQAA
inhibition of RANTES release (ELISA or Luminex; peptide, mouse peritoneal macrophages, C57BL/6 mouse; optimal dose within 0.1 pM to 100 nM, 1 h pretreatment, 15 h stimulation, with: LPS 100 ng/mL + IFN-γ 20 ng/mL; reference: LPS/IFN-γ stimulated control): 0%

CC(=O)c1sc(NN=C2c3ccccc3-c3nc4cc(F)ccc4nc32)nc1C
blood glucose (mice with STZ-induced diabetes; oral, 25 mg/kg, 144 h, day 6): 238 ± 4.8 mg/dL

C[n+]1cccc2c(N)cccc21
body weight gain (diet-induced obese mice; subcutaneous, 32 mg/kg/day, high-fat diet, once daily until termination): 0.9 g

Cc1c(C)c2c(c(C)c1OCc1ccccc1)CCC(C)(C(=O)NN=C1C(=O)N(C)c3ccc(Cl)cc31)O2 (centres unmarked)
minimal effective dose (seizure protection; male CF-1 mice; intraperitoneal, 4 h, with: maximal electroshock): 100 mg/kg

CCC1SC(NN=C2c3ccccc3-c3nc4cc(F)ccc4nc32)=NC1=O (centres unmarked)
blood glucose (mice with STZ-induced diabetes; oral, 25 mg/kg, 144 h, day 6): 254 ± 9.7 mg/dL

COc1ccc2nc([S@@+]([O-])Cc3ncc(C)c(OC)c3C)[nH]c2c1
intragastric pH (human ultra-rapid metabolizer; 40 mg/day, day 6, 5 days dosing): 2.4

CCN1CCN(c2ccc(Nc3cc(N(C)C(=O)Nc4c(Cl)c(OC)cc(OC)c4Cl)ncn3)cc2)CC1
patients with tumour reduction (FGFR1-amplified squamous NSCLC patients; ≥100 mg): 40.7%

CC[C@H](C)[C@H](NC(=O)[C@H](CCC(=O)O)NC(=O)[C@H](CO)NC(=O)[C@@H](NC(=O)[C@@H](N)CO)C(C)C)C(=O)N[C@@H](CCC(N)=O)C(=O)N[C@@H](CC(C)C)C(=O)N[C@@H](CCSC)C(=O)N[C@@H](Cc1c[nH]cn1)C(=O)N[C@@H](CC(N)=O)C(=O)N[C@@H](CC(C)C)C(=O)NCC(=O)N[C@@H](CCCCN)C(=O)N[C@@H](Cc1c[nH]cn1)C(=O)N[C@@H](CC(C)C)C(=O)N[C@@H](CC(N)=O)C(=O)N[C@@H](CO)C(=O)N[C@@H](CCSC)C(=O)N[C@@H](CCC(=O)O)C(=O)N[C@@H](CCCNC(=N)N)C(=O)N[C@H](C(=O)N[C@@H](CCC(=O)O)C(=O)N[C@@H](Cc1c[nH]c2ccccc12)C(=O)N[C@@H](CC(C)C)C(=O)N[C@@H](CCCNC(=N)N)C(=O)N[C@@H](CCCCN)C(=O)N[C@@H](CCCCN)C(=O)N[C@@H](CC(C)C)C(=O)N[C@@H](CCC(N)=O)C(=O)N[C@@H](CC(=O)O)C(=O)N[C@H](C(=O)N[C@@H](Cc1c[nH]cn1)C(=O)N[C@@H](CC(N)=O)C(=O)N[C@@H](Cc1ccccc1)C(=O)O)C(C)C)C(C)C
patients with PTH(1-84) below quantitation (item: endogenous PTH(1-84); human patients; dose not given, 12 months): 91%

CC1CCc2c1ccc1c2ccc2ccccc21 (centres unmarked)
minimal protective dose (adrenal haemorrhage prevention; rat; oral, with: 7,12-DMBA 5 mg i.v.): 1 mg

CC(=O)O[C@H]1C(=O)[C@@]2(C)[C@H]([C@H](OC(=O)c3ccccc3)[C@]3(O)C[C@H](OC(=O)[C@H](O)[C@@H](NC(=O)c4ccccc4)c4ccccc4)C(C)=C1C3(C)C)[C@]1(OC(C)=O)CO[C@@H]1C[C@@H]2O
tumour growth inhibition (sample A patient-derived NSCLC xenograft, Mus musculus; intravenous, 10 mg/kg every 4 days, 96 h; reference: vehicle): 60%

Cc1ccc2cc3c(ccc4ccccc43)cc2c1
minimal protective dose (adrenal haemorrhage prevention; rat; oral, with: 7,12-DMBA 5 mg i.v.): 0.5 mg

SIYNFEKL
single cytokine producers (flow cytometry, item: CD44hi CD8+ T cells; peptide, OT-I CD8+ T cells, mouse; primed 5 days, restimulated 100 ng/mL OVA257, with: no TGF-β1): 19.7%

CO[C@H]1/C=C\C=C(/C)C(=O)NC2=CC(=O)C(NCCN(C)C)=C(C[C@@H](C)C[C@H](OC)[C@H](O)[C@@H](C)/C=C(\C)[C@@H]1OC(N)=O)C2=O
HER2 protein level (western blot; mouse, SK-OV-3 xenograft, tumour; ip, 50 mg/kg, 3 doses every 8 h, unit not given; reference: α-tubulin): 0.32 ± 0.06

Cc1c(C)c2c(c(C)c1OCc1ccccc1)CCC(C)(C(=O)NN=C1C(=O)Nc3ccc(Cl)cc31)O2 (centres unmarked)
minimal effective dose (seizure protection; male CF-1 mice; intraperitoneal, 0.5 h, with: pentylenetetrazole 60 mg/kg subcutaneous): 100 mg/kg

CCc1cc(-c2noc(-c3cc(OC)nc(C4CCCC4)c3)n2)cc(C)c1OC[C@@H](O)CO
minimal effective plasma concentration (lymphocyte count reduction; Wistar rats, plasma; oral): ~132 nM

Palmitoyl-PCSTSSMA (N-palmitoyl; Palmitoyl = CCCCCCCCCCCCCCCC(=O)*)
Ki67-positive nuclei (SCID mouse, subcutaneous AsPC-1 xenograft, tumour tissue; intratumoral, 500 µg/mouse/day, 3 weeks): 11.2 ± 2.25%

C[C@]12CCCN1CC1=NNC(=O)c3cc(F)cc4[nH]c2c1c34
inhibition (PARylation, item: PAR; MDA-MB-436 xenograft, mouse, tumour; 5.45 mg/kg single dose, first 12 h): ≥ 80%

NNC1=NC(=O)C(=C2c3ccccc3-c3nc4cc(F)ccc4nc32)S1
blood glucose (mice with STZ-induced diabetes; oral, 25 mg/kg, 288 h, day 12): 408 ± 40.3 mg/dL

NCCCC[C@@H]1NC(=O)[C@@H](Cc2c[nH]c3ccccc23)NC(=O)[C@H](c2ccccc2)NC(=O)[C@@H]2C[C@@H](OC(=O)NCCN)CN2C(=O)[C@H](Cc2ccccc2)NC(=O)[C@H](Cc2ccc(OCc3ccccc3)cc2)NC1=O
GH AUC(0-2h) change (GHRH-stimulated GH secretion; healthy human volunteers; subcutaneous, 2.5 µg, with: GHRH 1 µg/kg; reference: pre-dose baseline): 23.8%

TLQPPASSRRRAFHHALPPAR
contractile activity (peptide, rat stomach fundus strips; 3 µM; reference: TLQP-21): 95 ± 4%

Cc1ccc(S(=O)(=O)NC(=O)NN2CC3CCCC3C2)cc1 (centres unmarked)
blood glucose (mice with STZ-induced diabetes; oral, 25 mg/kg, 144 h, day 6): 200 ± 5.8 mg/dL

Cc1c(C)c2c(c(C)c1OCc1ccccc1)CCC(C)(C(=O)NN=C1C(=O)N(C)c3ccccc31)O2 (centres unmarked)
minimal effective dose (seizure protection; male CF-1 mice; intraperitoneal, 0.5 h, with: maximal electroshock): 100 mg/kg

COc1cc(CNC(=O)CCCC/C=C/C(C)C)ccc1O
infarct size (male Sprague-Dawley rat, LAD occlusion-reperfusion; iv, 0.3 mg/kg, 5 min before reperfusion, 30 min occlusion, 2 h reperfusion; reference: area at risk): 45 ± 1%

CC(C)C[C@H](NC(=O)[C@H](CO)NC(=O)[C@H](CCCNC(=N)N)NC(=O)[C@H](CC(=O)O)NC(=O)[C@H](CCC(=O)O)NC(=O)[C@H](C)NC(=O)[C@@H]1CCCN1C(=O)[C@H](C)NC(=O)[C@H](CCC(=O)O)NC(=O)[C@@H]1CCCN1C(=O)[C@@H]1CCCN1)C(N)=O
HVA level (HPLC-EC; rat F344, unilateral 6-OHDA lesion, contralateral striatum; intranasal, 300 µg daily, 5 weeks post lesion): 861 ± 49 ng/g

CCCC(CCC)C(=O)O
minimal effective dose (seizure protection; male CF-1 mice; intraperitoneal, 0.5 h, with: pentylenetetrazole 60 mg/kg subcutaneous): 200 mg/kg

COc1cc2c(cc1OC)C(=O)C(CC1CCN(Cc3ccccc3)CC1)C2 (centres unmarked)
spontaneous alternation (Y-maze; male Swiss mice, scopolamine model; oral, 5 mg/kg, with: scopolamine 1.5 mg/kg i.p.; reference: scopolamine alone): increased

COc1cc(CN(CCN)C(=O)c2cccs2)ccc1OCc1ccccc1.Cl
decrease in c-Fos-positive neurons (rat, lateral parabrachial nucleus; intravenous, 6 mg/kg, with: cold exposure 4 °C 2 h): 45%

For quick reference, copied from above:
c1ccc2cc3c(ccc4ccccc43)cc2c1
minimal protective dose (adrenal haemorrhage prevention; rat; oral, with: 7,12-DMBA 5 mg i.v.): 1 mg

CC(=O)c1sc(NN=C2c3ccccc3-c3nc4cc(F)ccc4nc32)nc1C
blood glucose (mice with STZ-induced diabetes; oral, 25 mg/kg, 144 h, day 6): 238 ± 4.8 mg/dL

Cc1c(C)c2c(c(C)c1OCc1ccccc1)CCC(C)(C(=O)NN=C1C(=O)N(C)c3ccccc31)O2 (centres unmarked)
minimal effective dose (seizure protection; male CF-1 mice; intraperitoneal, 0.5 h, with: maximal electroshock): 100 mg/kg

CC(=O)c1sc(N=C2c3ccccc3-c3nc4cc(F)ccc4nc32)nc1C
blood glucose (mice with STZ-induced diabetes; oral, 25 mg/kg, 288 h, day 12): 300 ± 18.2 mg/dL
